# Results collected from several papers.
# Lines come from different studies, so protocols differ.
# US11 1-149: US11 1-149 (Herpes simplex virus 1, UniProt Q5MDG9)
# B1: hisG (Mycobacterium tuberculosis, UniProt P9WMN1); chain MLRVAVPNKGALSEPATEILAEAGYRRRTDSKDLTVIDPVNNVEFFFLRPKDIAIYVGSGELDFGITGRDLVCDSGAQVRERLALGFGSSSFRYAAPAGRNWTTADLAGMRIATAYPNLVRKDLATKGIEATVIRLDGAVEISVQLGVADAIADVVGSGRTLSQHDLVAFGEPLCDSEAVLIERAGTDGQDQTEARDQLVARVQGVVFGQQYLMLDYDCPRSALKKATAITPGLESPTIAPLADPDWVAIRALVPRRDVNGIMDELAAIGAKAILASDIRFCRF
Substance,tested on,assay,test system,setting,quantity,result
GGGAAUGGAUCCACAUCUACGAAUUCGCAAUCCUGUAUUGAACUUCUCACUAAAACUUCACUGC (structured RNA),US11 1-149,EMSA,folded RNA,,binding,binds
AGCAGCACAGAGGTCAGATGGCCATCCCCCCGTCCGATGAGTGGTGCTCCTATGCGTTCCGGATACGCTGCATGCGTGAA (ssDNA),"G residues 67-298 (Human respiratory syncytial virus, UniProt P20895)",capillary electrophoresis,single-stranded DNA,,binding,no binding
GGGAAUGGAUCCACAUCUACGAAUUCGACAUCCUGUAUUGAACUUCUCACUAAAACUUCACUGCAGACUUGACGAAGCUU (structured RNA),US11 1-149,EMSA,folded RNA,,binding,binds
UCAAAA (ssRNA),HIV-1 reverse transcriptase p66/p51 (HIV-1),filter binding,RNA,5 µM,binding,no binding
CGGGCCCGTCCCACCGCCCTGGAGCACCATCCGGGGCCGTGGGCCGGGCACCGGG (structured DNA),"UL84 1-586 (Human cytomegalovirus, UniProt P16727)",pull-down immunoblot,folded DNA,,binding,no binding
B1 (hisG),Nc1ncnc2c1ncn2[C@@H]1O[C@H](COP(=O)(O)OP(=O)(O)OP(=O)(O)O)[C@@H](O)[C@H]1O,steady-state kinetics,,"pH 8.5, 25 °C, apparent, added: PRPP",Km,263 µM
